Measured values of several laboratories.
FGFR2: Fibroblast growth factor receptor 2 (FGFR2, Homo sapiens, UniProt P21802)
FGFR2 N549H: Fibroblast growth factor receptor 2 (FGFR2, Homo sapiens, UniProt P21802, N549H)

CNS(=O)(=O)Nc1nccc(Cc2c(C)c3ccc(Oc4ncccc4F)cc3oc2=O)c1F gave a remaining binding of 89% (FGFR2; cell-free assay, competition with immobilised ligand; 10 µM).
Cc1cccc(O[C@H]2CCC[C@@H](C(C)CNCc3ccncc3)C2)c1 (relative stereo) has an inhibition of 3% (FGFR2; cell-free assay; 1 µM).
For CC(=O)N1c2ccc(-c3ccc(CNC(=O)c4cn5cc(-c6cnc(N)nc6)nc(N6CCOCC6)c5n4)cc3)cc2CC[C@@H]1C, the remaining binding was 96% (FGFR2; KINOMEscan; 10 µM).
The remaining activity of O=C=[N][Ru-4]123([n]4c5ccc(O)cc5c5c6c(c7cc(F)c[n+]1c7c54)C(=O)NC6=O)[S+]1CC[S+]2CC[S+]3CC1 (centres unmarked) is reported as 102% (FGFR2 N549H; enzyme activity; 100 nM, human enzyme, added: 10 µM ATP; baseline: untreated).
With COc1ccc(NC(=O)Nc2ccc3c(c2)C(=O)N(C(C)CO)CC(C)C(CN(C)Cc2ccc4c(c2)OCO4)O3)cc1 (centres unmarked) the remaining activity was 92% (FGFR2 N549H; kinase activity; 0.03 µM; baseline: control).
C=C1CCCCCCCCCC(CO)C1=O (centres unmarked) gave a remaining signal of 100% (FGFR2; cell-free assay; 10 µM).
The inhibition of NC(=O)C[C@H]1CCc2sc3ncnc(O[C@H]4CC[C@H](N5CCOCC5)CC4)c3c21 is reported as -5% (FGFR2; enzyme activity, inhibitor; 10 µM).
CN1CCN(Cc2ccc(NC(=O)c3cccc(C#Cc4cnc(N)c5ncccc45)c3)cc2C(F)(F)F)CC1 gave a remaining binding of 1.4% (FGFR2; cell-free assay, competition with immobilised ligand; 0.5 µM).
COc1c(Cl)cccc1Nc1c(-c2ccncc2C#C[C@@]2(C)CCCN2C(=O)/C=C/CN(C)C)[nH]c2c1C(=O)NCC2 has a remaining binding of 100% (FGFR2; cell-free assay, competition with immobilised ligand; 3 µM).
CCN1CCN(Cc2ccc(NC(=O)c3ccc(C)c(NC(=O)c4cncc(-c5cccs5)c4)c3)cc2C(F)(F)F)CC1 gave a remaining binding of 27% (FGFR2; binding, competition with immobilised ligand; 1 µM).
CNC(=O)C1CCN(c2cc(C)c(F)cc2NC(=O)c2ccc(-c3cc(O)ccc3C)c(C)c2)CC1 has a remaining binding of 71% (FGFR2; binding, competition with immobilised ligand; 1 µM).
COc1c(OCCCN2CCOCC2)ccc2c1N=C(NC(=O)c1cnc(N)nc1)N1CCN=C21 has a remaining activity of 105% (FGFR2; kinase activity, inhibitor; 1 µM; baseline: untreated control).
C=CC(=O)N1CCCC(n2c(=O)c3ncccc3n(Cc3ccc(Oc4ccccc4)cc3)c2=O)C1 (centres unmarked) gave a remaining binding of 100% (FGFR2; cell-free assay, competition with immobilised ligand; 1 µM).
The inhibition of Cc1nc2c(F)cc(-c3nc(Nc4ccc(CNC(=O)CCCCCCC(=O)NO)cc4)ncc3F)cc2n1C(C)C is reported as 53% (FGFR2; enzyme activity, inhibitor; 1 µM).

Repeated from above:
With COc1ccc(NC(=O)Nc2ccc3c(c2)C(=O)N(C(C)CO)CC(C)C(CN(C)Cc2ccc4c(c2)OCO4)O3)cc1 (centres unmarked) the remaining activity was 92% (FGFR2 N549H; kinase activity; 0.03 µM; baseline: control).
